Measured values of several laboratories.
Compare with care: the assays were run in different laboratories. ± marks the error that the study gave.

O=C([O-])c1cccc(CN(CCN(Cc2cn(Cc3ccccc3)nn2)Cc2cccc(C(=O)[O-])n2)Cc2cn(Cc3ccccc3)nn2)n1.[64Cu+2]
tissue uptake (healthy athymic nude mice, lung; intravenous, 4 h): 8.24 %ID/g

CCCC[C@@H]1NC(=O)[C@@H](NC(=O)[C@H](CCC(=O)O)NC(=O)CNC(=O)CN2CCN(CC(=O)O)CCN(CC(=O)O)CCN(CC(=O)O)CC2)CCCCNC(=O)C[C@@H](C(N)=O)NC(=O)[C@H](C(C)C)NC(=O)[C@@H]2CCCN2C(=O)[C@H](CCCNC(=N)N)NC(=O)CNC(=O)[C@H](Cc2c[nH]c3ccccc23)NC(=O)[C@H](CCCNC(=N)N)NC(=O)[C@@H](Cc2ccccc2)NC(=O)[C@H](Cc2c[nH]cn2)NC(=O)[C@H](CCC(=O)O)NC1=O [gallium-67 labelled]
tissue uptake (C57 mice with B16/F1 melanoma, brain; intravenous, 0.5 h): 0.1 ± 0.03 %ID/g

CCCC[C@H](NC(=O)CNC(=O)CNC(=O)CN1CCN(CC(=O)O)CCN(CC(=O)O)CCN(CC(=O)O)CC1)C(=O)N[C@H]1CC(=O)NCCCC[C@@H](C(N)=O)NC(=O)[C@H](Cc2c[nH]c3ccccc23)NC(=O)[C@H](CCCNC(=N)N)NC(=O)[C@@H](Cc2ccccc2)NC(=O)[C@H](Cc2c[nH]cn2)NC1=O [gallium-67 labelled]
tissue uptake (female C57 mice, B16/F1 melanoma, kidneys; intravenous, 0.037 MBq, 24 h): 5.6 ± 1.24 %ID/g

O=C([O-])CN1CCN(CC(=O)[O-])CCN(CC(=O)NCCc2ccc3c(c2)C2C=CCC2C(c2cc4c(cc2Br)OCO4)N3)CCN(CC(=O)[O-])CC1.[111In+3] (stereo not drawn)
tissue uptake (mice with Hec50 tumour xenograft, muscle; 2 h, together with: G-1 5 µg blocking): 0.15 ± 0.03 %ID/g

O=C([O-])CN1CCN(CC(=O)[O-])CCN(CC(=O)[O-])CCN(CC(=O)[O-])CC1.[64Cu+2]
tissue uptake (healthy athymic nude mice, liver; intravenous, 4 h): 1.64 %ID/g

CCCC[C@H](NC(=O)CNC(=O)CNC(=O)CN1CCN(CC(=O)O)CCN(CC(=O)O)CC1)C(=O)N[C@H]1CC(=O)NCCCC[C@@H](C(N)=O)NC(=O)[C@H](Cc2c[nH]c3ccccc23)NC(=O)[C@H](CCCNC(=N)N)NC(=O)[C@@H](Cc2ccccc2)NC(=O)[C@H](Cc2c[nH]cn2)NC1=O [gallium-67 labelled]
tissue uptake (female C57 mice, B16/F1 melanoma, bone; intravenous, 0.037 MBq, 2 h): 0.91 ± 0.56 %ID/g

NC12CNCCNCC(NCc3ccc(CNC(=O)CCCC(=O)NCc4ccc(-c5nncnn5)cc4)cc3)(CNCCNC1)CNCCNC2.[64Cu+2]
tissue uptake (athymic nude mice, SW1222 xenograft, heart; 24 h post-injection, 24 h pretargeting interval, together with: huA33-TCO pretargeting): 0.81 ± 0.04 %ID/g

CC(C)[C@H](NC(=O)[C@@H]1CCCN1C(=O)[C@H](CCCNC(=N)N)NC(=O)[C@H](CS)NC(=O)[C@H](Cc1c[nH]c2ccccc12)NC(=O)[C@H](CCCNC(=N)N)NC(=O)[C@@H](Cc1ccccc1)NC(=O)[C@H](Cc1c[nH]cn1)NC(=O)[C@H](CCC(=O)O)NC(=O)[C@H](CS)NC(=O)[C@H](CS)NC(=O)CNC(=O)[C@@H]1CC(=O)N[C@@H](CCCNC(=N)N)C(=O)NCC(=O)N[C@@H](CC(=O)O)C(=O)N[C@H](Cc2ccc(O)cc2)C(=O)N1)C(N)=O [technetium-99m labelled]
tissue uptake (C57 mice B16/F1 melanoma female, blood; iv, 2 h, together with: NDP-MSH 10 µg co-injected): 0.44 ± 0.27 %ID/g

CN1C(=O)[C@@H](Cc2ccc(O)c(I)c2)NC(=O)CNC(=O)[C@H](Cc2ccc3ccccc3c2)NC(=O)[C@H](CCCNC(=N)N)NC(=O)[C@H]1CCCNC(=O)c1ccc(CNC(=O)CN2CCN(CC(=O)O)CCN(CC(=O)O)CCN(CC(=O)O)CC2)cc1 [lutetium-177 labelled]
tissue uptake (measured: 177Lu radioactivity; female CB-17 SCID mice, Daudi xenograft, pancreas; intravenous, 0.16 nmol per mouse, 48 h): 0.08 ± 0.01 %ID/g

A few entries again:
CCCC[C@H](NC(=O)CNC(=O)CNC(=O)CN1CCN(CC(=O)O)CCN(CC(=O)O)CCN(CC(=O)O)CC1)C(=O)N[C@H]1CC(=O)NCCCC[C@@H](C(N)=O)NC(=O)[C@H](Cc2c[nH]c3ccccc23)NC(=O)[C@H](CCCNC(=N)N)NC(=O)[C@@H](Cc2ccccc2)NC(=O)[C@H](Cc2c[nH]cn2)NC1=O [gallium-67 labelled]
tissue uptake (female C57 mice, B16/F1 melanoma, kidneys; intravenous, 0.037 MBq, 24 h): 5.6 ± 1.24 %ID/g
